Results collected from several papers.
Compare with care: the assays were run in different laboratories.

SMILES | assay | test system | conditions | hepatic clearance [mL/min/kg]
O=C1CC[C@H](N2Cc3cc(N4CCN(CC5CCN(c6ccc([C@@H]7c8ccc(O)cc8CC[C@@H]7c7ccccc7)cc6)CC5)CC4)ccc3C2=O)C(=O)N1 | – | cryopreserved Sprague-Dawley rat hepatocytes | 1 µM, corrected for fu | 13.7
Cc1nc2ccc(OCc3ccc(C(F)(F)F)cc3)cc2[nH]1 | – | human liver S9 | 1 µM, pH 7.4 | 5.67
CN1CCN(C(=O)c2ccc(C3CCCCC3)cc2)CC1=O | hepatocyte stability | cryopreserved rat hepatocytes | 1 µM | 44
COc1cc(-c2cc(C(C)=O)n3ccccc23)c(OC)cc1Cn1ccnc1 | – | rat liver microsomes | 1 µM, pH 7.4 | 55.5
CN1CCN(C(=O)c2ccc([C@H]3[C@@H](F)[C@@H](F)C[C@@H](F)[C@H]3F)cc2)CC1=O | liver microsome stability | cynomolgus liver microsomes | 1 µM | 4.9
c1ccc2c(c1)ccc1c3ccccc3ccc21 | – | developing zebrafish, liver | – | 8610
COCCC(=O)Nc1ccc([C@H]2[C@@H](F)[C@@H](F)C[C@@H](F)[C@H]2F)cc1 | hepatocyte stability | cryopreserved rat hepatocytes | 1 µM | 14
c1ccc2c(c1)ccc1ccccc12 | – | developing zebrafish, liver | – | 134
O=C(c1ccc(F)cc1)C1CCN(CCn2c(=O)[nH]c3ccccc3c2=O)CC1 | – | monkey liver microsomes | – | 26.5

For quick reference, copied from above:
SMILES | assay | test system | conditions | hepatic clearance [mL/min/kg]
COc1cc(-c2cc(C(C)=O)n3ccccc23)c(OC)cc1Cn1ccnc1 | – | rat liver microsomes | 1 µM, pH 7.4 | 55.5
